# Published values pooled from the literature.
# Each line is one published result; not all experiments were run side by side. ± gives the spread as reported.
Structure (SMILES),organism,assay,system,conditions,scale,measurement,value
C[C@@H]1NC(=O)[C@H](C)NC(=O)[C@@H](NC(=O)[C@@H]2CCCN2C(=O)[C@H](CC(N)=O)NC(=O)[C@H](Cc2ccc(O)cc2)NC(=O)[C@@H](N)Cc2cccc(CN)c2)CSC(=O)[C@H](Cc2cccc(F)c2)NC(=O)[C@H](Cc2ccc(O)cc2)NC1=O,Staphylococcus epidermidis,safranin staining,RP62A,"10 µM, 24 h, 37 °C",baseline: DMSO control,biofilm inhibition,43.5%
[O-][N+]1=C(c2ccccc2)C2=NCCCN2c2ncccc21,Bacteroides fragilis,,,,,MIC90,≤ 0.06 µg/mL
CC[C@H](C)[C@H](NC(=O)CNC(=O)[C@H](CCCCN)NC(=O)[C@@H](NC(=O)[C@H](Cc1c[nH]c2ccccc12)NC(=O)[C@H](CCCCN)NC(=O)[C@H](Cc1ccccc1)NC(=O)[C@@H](NC(=O)[C@H](CCCCN)NC(=O)[C@H](CCCCN)NC(=O)[C@@H](NC(=O)[C@H](Cc1c[nH]c2ccccc12)NC(=O)[C@H](Cc1c[nH]c2ccccc12)NC(=O)[C@@H](N)CCCCN)[C@@H](C)CC)C(C)C)[C@@H](C)CC)C(=O)NCC(=O)N[C@@H](CCCCN)C(=O)N[C@@H](CCC(=O)O)C(=O)N[C@H](C(=O)N[C@H](C(=O)N[C@H](C(=O)N[C@@H](CCCNC(=N)N)C(=O)N[C@H](C(=O)NCC(=O)N[C@H](C(=O)N[C@@H](CCC(=O)O)C(=O)N[C@H](C(=O)N[C@@H](C)C(=O)N[C@@H](C)C(=O)N[C@@H](CS)C(=O)N[C@@H](CCCCN)C(=O)N[C@H](C(=O)N[C@@H](CCCCN)C(=O)NCC(=O)N[C@@H](CCC(=O)O)C(=O)N[C@@H](CS)C(N)=O)[C@@H](C)CC)[C@@H](C)CC)[C@@H](C)CC)[C@@H](C)O)[C@@H](C)CC)C(C)C)C(C)C,Acinetobacter baumannii,colony count,"carbapenem-resistant, PBS","20 µg/mL, 2 h",,bactericidal rate,100%
CCCCCCCCC=CCCCCCCCCNC(=O)C(N)Cc1ccc(OP(=O)(O)COC(CO)Cn2ccc(N)nc2=O)cc1 (stereo not shown),varicella-zoster virus,cytopathic effect,"HFF, Ellen",14 d,,EC50,4 nM
CCOC(=O)C1(Cc2ccc(-c3ccccc3)cc2)Oc2cc(F)ccc2N(Cc2ccc(-c3ccccc3)cc2)C1=O (stereo not shown),Amaranthus retroflexus,"fresh weight, greenhouse postemergence",,"postemergence, 150 g ai/ha, 21 days",,inhibition,55.4 ± 3.63%
CC[C@H](C)CCCCC(=O)N[C@@H](CCN)C(=O)N[C@H](C(=O)N[C@@H](CCN)C(=O)N[C@H]1CCNC(=O)[C@H]([C@@H](C)O)NC(=O)[C@H](CCN)NC(=O)[C@H](CCN)NC(=O)[C@H](CC(C)C)NC(=O)[C@@H](CC(C)C)NC(=O)[C@H](CCN)NC1=O)[C@@H](C)O,Escherichia coli,daily serial passaging,ATCC 8739,"highest sub-MIC, 27 days",baseline: initial MIC,MIC fold change,1.63
C[N+]1=C2C(c3ccc(Cl)cc3)=[N+]([O-])c3ccccc3N2CCC1,Bacteroides fragilis,microbial growth,,,,MIC50,4 µg/mL
CCOC(=O)C1(Cc2ccc(C)cc2)Oc2cc(F)ccc2N(Cc2ccc(C)cc2)C1=O (stereo not shown),Amaranthus retroflexus,"fresh weight, greenhouse postemergence",,"postemergence, 150 g ai/ha, 21 days",,inhibition,54.7 ± 3.11%
CCN(CC)CC#CCNc1ccnc2cc(Cl)ccc12,Plasmodium falciparum,"parasite growth, LDH",Dd2,,baseline: IC50 Dd2 over IC50 3D7,resistance index,1.3
CC(C)C[C@H](NC(=O)[C@@H](N)CO)C(=O)N[C@@H](Cc1c[nH]c2ccccc12)C(=O)N[C@@H](CCC(=O)O)C(=O)N[C@@H](CC(N)=O)C(=O)N[C@@H](Cc1ccccc1)C(=O)N[C@@H](CCCCN)C(=O)N[C@@H](CC(N)=O)C(=O)N[C@@H](C)C(=O)NCC(=O)N[C@@H](CCCCN)C(=O)N[C@@H](CCCCN)C(N)=O,all tested microorganisms,,,,,geometric mean MIC,256 µM
COc1ccc(Cn2c3cc(=O)n(Cc4cccc(Cl)n4)c(C)c3c(=O)n2-c2ccccn2)cc1,human respiratory syncytial virus,,recombinant reporter virus,"concentration not given, scale 0 to 100, together with: adenosine 300 µM",,normalized viral replication,0
CNCCO.O=C(O)C(Cl)Cl,Amaranthus retroflexus,herbicidal activity,,"15 mg/mL, 21 days, pre-emergence greenhouse",,inhibition,0%
Cc1cc(C(=O)Nc2nc3cccc(C)c3n2[C@H]2CCCCN(C(=O)/C=C/CN(C)C)C2)ccn1,Trypanosoma brucei,propidium iodide flow cytometry,bloodstream form,"concentration not given, 16 h",,cells in sub-G0 phase,2.17%

# Repeated from above:
Structure (SMILES),organism,assay,system,conditions,scale,measurement,value
CCN(CC)CC#CCNc1ccnc2cc(Cl)ccc12,Plasmodium falciparum,"parasite growth, LDH",Dd2,,baseline: IC50 Dd2 over IC50 3D7,resistance index,1.3
